Measurements from different studies.
Parts stem from different laboratories: compare values within a part only. Several values in a cell are separate wells, animals, samples, runs or records.
UniProt P42336, sequence (whole entry, unmodified, looked up): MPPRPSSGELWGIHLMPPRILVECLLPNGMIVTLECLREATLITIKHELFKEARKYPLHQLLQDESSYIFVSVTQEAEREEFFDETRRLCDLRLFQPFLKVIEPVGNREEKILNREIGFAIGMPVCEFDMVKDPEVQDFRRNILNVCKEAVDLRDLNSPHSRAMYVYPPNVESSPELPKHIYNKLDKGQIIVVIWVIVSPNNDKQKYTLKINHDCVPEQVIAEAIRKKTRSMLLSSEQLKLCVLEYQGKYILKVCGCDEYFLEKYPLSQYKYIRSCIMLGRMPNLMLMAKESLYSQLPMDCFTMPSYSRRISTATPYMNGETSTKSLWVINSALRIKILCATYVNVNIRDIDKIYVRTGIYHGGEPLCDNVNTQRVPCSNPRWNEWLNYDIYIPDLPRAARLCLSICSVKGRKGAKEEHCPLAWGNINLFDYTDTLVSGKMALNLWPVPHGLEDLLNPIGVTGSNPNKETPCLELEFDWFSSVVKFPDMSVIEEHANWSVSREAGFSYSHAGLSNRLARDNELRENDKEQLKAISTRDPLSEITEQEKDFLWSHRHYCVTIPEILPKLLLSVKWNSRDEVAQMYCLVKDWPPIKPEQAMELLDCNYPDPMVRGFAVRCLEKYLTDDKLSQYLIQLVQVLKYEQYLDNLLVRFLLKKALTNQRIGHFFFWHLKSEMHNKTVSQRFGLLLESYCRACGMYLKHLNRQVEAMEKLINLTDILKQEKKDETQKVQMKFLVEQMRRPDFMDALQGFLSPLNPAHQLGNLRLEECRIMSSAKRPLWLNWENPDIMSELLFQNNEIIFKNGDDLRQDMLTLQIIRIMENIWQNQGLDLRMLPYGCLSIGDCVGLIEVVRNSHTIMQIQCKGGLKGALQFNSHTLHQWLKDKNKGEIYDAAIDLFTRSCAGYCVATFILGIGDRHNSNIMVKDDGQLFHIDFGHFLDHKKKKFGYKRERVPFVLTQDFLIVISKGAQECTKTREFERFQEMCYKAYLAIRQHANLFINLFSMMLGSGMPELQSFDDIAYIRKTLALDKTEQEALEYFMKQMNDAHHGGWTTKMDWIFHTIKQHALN
UniProt P41743, sequence (whole entry, looked up): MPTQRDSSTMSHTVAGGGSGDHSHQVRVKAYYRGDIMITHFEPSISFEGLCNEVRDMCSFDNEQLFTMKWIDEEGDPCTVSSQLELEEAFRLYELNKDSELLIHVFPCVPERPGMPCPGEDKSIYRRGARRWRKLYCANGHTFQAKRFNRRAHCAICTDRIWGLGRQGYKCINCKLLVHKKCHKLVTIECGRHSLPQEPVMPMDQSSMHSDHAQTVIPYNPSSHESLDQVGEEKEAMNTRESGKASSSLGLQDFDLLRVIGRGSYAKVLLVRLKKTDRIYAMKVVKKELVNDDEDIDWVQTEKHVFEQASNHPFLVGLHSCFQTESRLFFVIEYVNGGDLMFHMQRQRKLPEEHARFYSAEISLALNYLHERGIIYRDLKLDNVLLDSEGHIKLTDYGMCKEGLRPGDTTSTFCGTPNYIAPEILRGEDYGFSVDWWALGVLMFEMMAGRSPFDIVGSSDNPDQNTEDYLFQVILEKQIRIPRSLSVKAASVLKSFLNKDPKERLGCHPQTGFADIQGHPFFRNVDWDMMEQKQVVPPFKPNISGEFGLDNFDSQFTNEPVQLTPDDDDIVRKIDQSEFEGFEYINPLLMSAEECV
UniProt Q96NX5, sequence (whole entry, looked up): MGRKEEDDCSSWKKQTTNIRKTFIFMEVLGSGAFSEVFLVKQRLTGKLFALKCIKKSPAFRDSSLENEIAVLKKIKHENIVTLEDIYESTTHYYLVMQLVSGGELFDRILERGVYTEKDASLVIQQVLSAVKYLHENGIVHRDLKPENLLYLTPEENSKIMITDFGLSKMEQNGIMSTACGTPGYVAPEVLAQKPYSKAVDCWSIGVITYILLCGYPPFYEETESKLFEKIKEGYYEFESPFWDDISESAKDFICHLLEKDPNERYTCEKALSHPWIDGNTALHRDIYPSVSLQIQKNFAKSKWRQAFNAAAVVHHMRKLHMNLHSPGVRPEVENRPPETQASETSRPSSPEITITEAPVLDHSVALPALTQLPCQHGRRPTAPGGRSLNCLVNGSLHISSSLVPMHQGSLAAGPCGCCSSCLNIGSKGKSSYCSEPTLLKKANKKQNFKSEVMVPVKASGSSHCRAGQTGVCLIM
UniProt Q8IYT8, sequence (whole entry, looked up): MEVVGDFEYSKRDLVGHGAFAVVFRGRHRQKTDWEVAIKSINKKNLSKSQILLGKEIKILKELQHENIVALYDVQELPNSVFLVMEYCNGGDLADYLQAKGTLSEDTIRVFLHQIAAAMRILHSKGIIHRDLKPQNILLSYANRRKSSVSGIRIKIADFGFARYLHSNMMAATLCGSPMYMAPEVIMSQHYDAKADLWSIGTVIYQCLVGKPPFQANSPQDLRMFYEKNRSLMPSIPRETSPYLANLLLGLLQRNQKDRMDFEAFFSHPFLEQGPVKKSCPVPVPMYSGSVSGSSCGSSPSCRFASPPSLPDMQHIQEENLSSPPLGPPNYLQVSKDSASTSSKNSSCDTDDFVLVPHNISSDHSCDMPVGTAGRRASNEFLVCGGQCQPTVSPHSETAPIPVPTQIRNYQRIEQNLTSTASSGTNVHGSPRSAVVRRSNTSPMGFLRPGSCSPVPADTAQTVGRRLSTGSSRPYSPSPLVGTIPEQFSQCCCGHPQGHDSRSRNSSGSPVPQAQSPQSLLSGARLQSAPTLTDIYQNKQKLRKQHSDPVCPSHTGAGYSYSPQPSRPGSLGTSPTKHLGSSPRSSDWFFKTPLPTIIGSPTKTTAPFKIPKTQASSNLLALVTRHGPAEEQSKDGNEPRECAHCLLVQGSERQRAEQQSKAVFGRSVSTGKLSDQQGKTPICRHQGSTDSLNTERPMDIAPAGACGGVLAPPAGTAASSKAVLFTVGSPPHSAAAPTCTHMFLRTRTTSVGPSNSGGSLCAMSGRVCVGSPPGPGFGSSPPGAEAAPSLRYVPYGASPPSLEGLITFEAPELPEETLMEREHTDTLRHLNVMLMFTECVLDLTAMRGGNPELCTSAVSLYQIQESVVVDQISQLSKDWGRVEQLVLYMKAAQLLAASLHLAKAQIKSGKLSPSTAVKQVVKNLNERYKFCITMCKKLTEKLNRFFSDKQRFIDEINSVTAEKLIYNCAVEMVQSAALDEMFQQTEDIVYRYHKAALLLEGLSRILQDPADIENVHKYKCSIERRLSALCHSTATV
UniProt Q9UK32, sequence (whole entry, looked up): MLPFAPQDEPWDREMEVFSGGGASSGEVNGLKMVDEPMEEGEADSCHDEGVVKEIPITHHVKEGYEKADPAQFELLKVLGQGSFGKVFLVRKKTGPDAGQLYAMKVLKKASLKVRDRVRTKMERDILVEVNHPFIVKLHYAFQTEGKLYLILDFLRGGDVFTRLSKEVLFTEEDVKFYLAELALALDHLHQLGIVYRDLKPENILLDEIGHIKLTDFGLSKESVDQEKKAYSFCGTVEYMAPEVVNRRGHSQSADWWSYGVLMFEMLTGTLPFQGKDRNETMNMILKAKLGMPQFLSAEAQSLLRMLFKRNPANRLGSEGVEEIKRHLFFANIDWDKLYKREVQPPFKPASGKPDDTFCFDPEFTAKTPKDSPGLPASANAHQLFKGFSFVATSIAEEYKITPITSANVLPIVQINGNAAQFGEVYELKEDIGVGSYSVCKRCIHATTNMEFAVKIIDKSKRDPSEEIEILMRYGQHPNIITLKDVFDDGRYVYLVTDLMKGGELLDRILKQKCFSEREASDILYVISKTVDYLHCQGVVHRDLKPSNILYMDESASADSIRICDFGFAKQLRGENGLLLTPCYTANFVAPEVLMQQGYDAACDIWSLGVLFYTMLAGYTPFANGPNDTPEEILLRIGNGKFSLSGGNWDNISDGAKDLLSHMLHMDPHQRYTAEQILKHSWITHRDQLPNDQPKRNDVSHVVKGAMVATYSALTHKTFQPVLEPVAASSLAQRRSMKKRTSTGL
UniProt P10721, sequence (whole entry, unmodified, looked up): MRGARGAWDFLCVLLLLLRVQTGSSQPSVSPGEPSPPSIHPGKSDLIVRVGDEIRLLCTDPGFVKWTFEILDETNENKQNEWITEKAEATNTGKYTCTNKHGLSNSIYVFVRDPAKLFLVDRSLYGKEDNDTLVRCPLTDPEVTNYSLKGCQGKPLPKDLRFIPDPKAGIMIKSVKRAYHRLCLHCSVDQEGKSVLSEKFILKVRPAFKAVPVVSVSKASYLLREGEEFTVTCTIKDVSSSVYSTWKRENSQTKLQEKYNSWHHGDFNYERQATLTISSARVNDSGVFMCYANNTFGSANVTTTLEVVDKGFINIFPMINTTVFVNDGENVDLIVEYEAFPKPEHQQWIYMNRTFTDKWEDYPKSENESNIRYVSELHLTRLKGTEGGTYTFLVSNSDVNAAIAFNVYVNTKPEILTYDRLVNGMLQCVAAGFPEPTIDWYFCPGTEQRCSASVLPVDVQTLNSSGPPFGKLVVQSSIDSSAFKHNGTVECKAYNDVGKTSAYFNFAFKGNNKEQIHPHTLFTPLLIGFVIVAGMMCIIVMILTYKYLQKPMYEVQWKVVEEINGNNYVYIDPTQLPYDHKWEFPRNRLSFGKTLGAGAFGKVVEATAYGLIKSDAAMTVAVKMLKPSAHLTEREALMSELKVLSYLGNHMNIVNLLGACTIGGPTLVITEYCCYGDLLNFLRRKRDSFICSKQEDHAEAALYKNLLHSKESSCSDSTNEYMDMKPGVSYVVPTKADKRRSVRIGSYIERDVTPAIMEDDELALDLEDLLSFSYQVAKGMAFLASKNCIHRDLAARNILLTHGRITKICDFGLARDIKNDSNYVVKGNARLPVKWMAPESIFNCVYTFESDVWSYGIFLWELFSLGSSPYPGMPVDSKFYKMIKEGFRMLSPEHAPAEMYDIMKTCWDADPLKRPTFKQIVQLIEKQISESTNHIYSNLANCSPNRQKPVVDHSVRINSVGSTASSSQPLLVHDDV

Set 1
Structure (SMILES): CC(C)C[C@@H]1NC(=O)[C@@H](N(C)C(=O)[C@H](CC2CCC2)NC(=O)[C@@H]2C[C@@H](F)CN2C(=O)C2(C(F)(F)F)CC(F)(F)C2)CCCCNC(=O)C2(CC2)NC(=O)[C@H](Cc2cc(Cl)ccc2Cl)N(C)C1=O
Cell line: NCI-H446
Time: 5 days
Reference: DMSO
Quantity: cell growth
cell counting; 124 nM: 14.9% and 17.6%
cell counting; 1.52 nM: 80.5% and 96.3%
cell counting; 41.1 nM: 25.9% and 32.5%
cell counting; 10 µM: 14.9% and 15.6%
Vi-Cell counting; 371 nM, with: Myt1 inhibitor 1000 nM: 9.21% and 6.31%
cell counting; 4.57 nM: 78.4% and 63.5%

Set 2
Structure (SMILES): O=C(Nc1cnn(-c2csc(C(=O)NC3COC3)c2)c1)Nc1c(F)cccc1Cl
Read-out: enzyme activity
Concentration: 5 µM
Quantity: remaining activity
MAP3K8 (Homo sapiens, UniProt P41279); inhibitor: 93.6%
CDC42BPB (Homo sapiens, UniProt Q9Y5S2); reference: untreated control: 84.4%
CHUK (Homo sapiens, UniProt O15111); reference: untreated control: 106%
RPS6KA6 (Homo sapiens, UniProt Q9UK32); reference: untreated control: 91.3%

Set 3
Host: human
Matrix: microsomes or S9
Concentration: 2 µM
Time: 0.5 h
Quantity: remaining compound
Cn1cc(C2NC(N)=Nc3nc4ccccc4n32)c2cc(F)ccc21 (centres unmarked): > 99.9%
CC1CCC(c2c[nH]c3ccc(Cl)cc23)C(=O)C1 (centres unmarked): 13.3%
O=C(NC1CCCC1)N1Cc2c(sc3c2CCCC3)-n2cccc2C1c1cccc(F)c1 (centres unmarked): 3.02%
CC(C)CCn1cnc2c(cnn2-c2ccc(Cl)cc2)c1=O: 35.8%
COc1ccc(-n2c(C)c(C)c3nc(OC)ccc32)cc1: 21.4%
CCn1ccc(C(=O)Nc2cccn3ncnc23)n1: 12.4%
CC(C)n1c(N2CCCN(C(=O)c3cc4cc(Cl)ccc4[nH]3)CC2)cc(=O)n(C(C)C)c1=O: 19%
CCCC(=O)Nn1c(=S)[nH]c2cc(C)[nH]c2c1=O: 97.6%

Set 4
Structure (SMILES): Cc1cc(-n2nc(Cc3cc(F)cc(C(F)(F)F)c3)nc2C)ccc1C(N)=O
Read-out: cell-free assay
Technique: competition with immobilised ligand
Concentration: 1 µM
Quantity: remaining binding
PIK3CA (Homo sapiens, UniProt P42336, I800L): 70%
DCLK1 (Homo sapiens, UniProt O15075): 100%
IKBKB (Homo sapiens, UniProt O14920): 92%
PRKCI (Homo sapiens, UniProt P41743): 100%
FLT3 (Homo sapiens, UniProt P36888, F691L/ITD): 100%
KIT (Homo sapiens, UniProt P10721, V559D): 83%
Tyrosine-protein kinase ABL1, phosphorylated (ABL1, Homo sapiens, UniProt P00519, H396P): 98%
PRKCQ (Homo sapiens, UniProt Q04759): 100%
PIK3CA (Homo sapiens, UniProt P42336, M1043I): 95%
ULK2 (Homo sapiens, UniProt Q8IYT8): 100%
CAMK1G (Homo sapiens, UniProt Q96NX5): 100%
LRRK2 (Homo sapiens, UniProt Q5S007): 99%
DYRK2 (Homo sapiens, UniProt Q92630): 91%
TESK1 (Homo sapiens, UniProt Q15569): 100%

Repeated from above (set 4):
PIK3CA (Homo sapiens, UniProt P42336, M1043I): 95%
TESK1 (Homo sapiens, UniProt Q15569): 100%
Tyrosine-protein kinase ABL1, phosphorylated (ABL1, Homo sapiens, UniProt P00519, H396P): 98%
